Experimental data collected from several papers.
Parts stem from different laboratories: compare values within a part only.
Chain of UniProt Q13131 (whole entry, looked up): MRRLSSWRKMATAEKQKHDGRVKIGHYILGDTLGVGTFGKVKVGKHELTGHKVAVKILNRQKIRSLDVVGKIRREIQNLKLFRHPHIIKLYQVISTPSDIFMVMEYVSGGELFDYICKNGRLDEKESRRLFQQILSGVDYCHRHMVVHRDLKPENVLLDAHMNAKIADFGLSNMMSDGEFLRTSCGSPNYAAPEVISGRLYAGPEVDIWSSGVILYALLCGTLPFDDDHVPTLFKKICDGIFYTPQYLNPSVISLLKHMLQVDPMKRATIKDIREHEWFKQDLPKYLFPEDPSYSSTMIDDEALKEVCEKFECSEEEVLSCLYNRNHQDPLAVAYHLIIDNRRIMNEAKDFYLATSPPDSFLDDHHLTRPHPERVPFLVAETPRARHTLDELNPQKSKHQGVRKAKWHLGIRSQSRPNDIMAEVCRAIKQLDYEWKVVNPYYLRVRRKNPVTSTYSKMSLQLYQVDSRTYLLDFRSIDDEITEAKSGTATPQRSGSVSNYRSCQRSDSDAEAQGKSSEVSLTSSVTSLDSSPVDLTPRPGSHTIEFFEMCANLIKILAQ
Chain of UniProt P0C1S8 (whole entry, looked up): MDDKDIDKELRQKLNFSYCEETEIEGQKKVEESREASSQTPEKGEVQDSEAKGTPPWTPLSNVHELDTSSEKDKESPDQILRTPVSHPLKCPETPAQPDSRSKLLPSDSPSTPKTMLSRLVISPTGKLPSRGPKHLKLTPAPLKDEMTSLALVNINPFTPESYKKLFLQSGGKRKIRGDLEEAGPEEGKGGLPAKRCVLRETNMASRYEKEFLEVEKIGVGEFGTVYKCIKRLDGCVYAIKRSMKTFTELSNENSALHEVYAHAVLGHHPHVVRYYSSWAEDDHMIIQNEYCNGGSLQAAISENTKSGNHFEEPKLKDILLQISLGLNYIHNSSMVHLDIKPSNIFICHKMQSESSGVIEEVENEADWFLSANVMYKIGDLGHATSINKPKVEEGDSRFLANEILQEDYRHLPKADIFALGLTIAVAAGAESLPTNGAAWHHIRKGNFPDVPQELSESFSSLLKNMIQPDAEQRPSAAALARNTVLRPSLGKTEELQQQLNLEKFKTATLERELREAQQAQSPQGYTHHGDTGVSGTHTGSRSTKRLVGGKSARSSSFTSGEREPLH
Chain of UniProt Q8NI60 (whole entry, looked up): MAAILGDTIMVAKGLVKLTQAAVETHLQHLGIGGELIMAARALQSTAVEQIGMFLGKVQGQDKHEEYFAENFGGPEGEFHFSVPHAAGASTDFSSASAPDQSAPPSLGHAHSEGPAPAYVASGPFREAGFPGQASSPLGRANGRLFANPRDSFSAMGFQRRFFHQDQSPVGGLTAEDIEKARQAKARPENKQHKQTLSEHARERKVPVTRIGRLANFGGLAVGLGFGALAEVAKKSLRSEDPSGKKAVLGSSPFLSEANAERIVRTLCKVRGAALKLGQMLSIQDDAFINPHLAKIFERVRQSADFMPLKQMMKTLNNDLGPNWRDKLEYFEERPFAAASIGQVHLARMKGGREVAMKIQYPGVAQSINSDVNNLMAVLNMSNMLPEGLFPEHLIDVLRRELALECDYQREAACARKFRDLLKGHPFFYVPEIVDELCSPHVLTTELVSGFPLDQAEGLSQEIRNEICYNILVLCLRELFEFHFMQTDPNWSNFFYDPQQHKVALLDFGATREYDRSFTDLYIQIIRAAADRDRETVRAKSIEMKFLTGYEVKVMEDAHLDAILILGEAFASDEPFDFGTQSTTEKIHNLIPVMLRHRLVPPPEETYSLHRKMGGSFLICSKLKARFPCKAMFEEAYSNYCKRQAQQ
Chain of UniProt P16234 (whole entry, looked up): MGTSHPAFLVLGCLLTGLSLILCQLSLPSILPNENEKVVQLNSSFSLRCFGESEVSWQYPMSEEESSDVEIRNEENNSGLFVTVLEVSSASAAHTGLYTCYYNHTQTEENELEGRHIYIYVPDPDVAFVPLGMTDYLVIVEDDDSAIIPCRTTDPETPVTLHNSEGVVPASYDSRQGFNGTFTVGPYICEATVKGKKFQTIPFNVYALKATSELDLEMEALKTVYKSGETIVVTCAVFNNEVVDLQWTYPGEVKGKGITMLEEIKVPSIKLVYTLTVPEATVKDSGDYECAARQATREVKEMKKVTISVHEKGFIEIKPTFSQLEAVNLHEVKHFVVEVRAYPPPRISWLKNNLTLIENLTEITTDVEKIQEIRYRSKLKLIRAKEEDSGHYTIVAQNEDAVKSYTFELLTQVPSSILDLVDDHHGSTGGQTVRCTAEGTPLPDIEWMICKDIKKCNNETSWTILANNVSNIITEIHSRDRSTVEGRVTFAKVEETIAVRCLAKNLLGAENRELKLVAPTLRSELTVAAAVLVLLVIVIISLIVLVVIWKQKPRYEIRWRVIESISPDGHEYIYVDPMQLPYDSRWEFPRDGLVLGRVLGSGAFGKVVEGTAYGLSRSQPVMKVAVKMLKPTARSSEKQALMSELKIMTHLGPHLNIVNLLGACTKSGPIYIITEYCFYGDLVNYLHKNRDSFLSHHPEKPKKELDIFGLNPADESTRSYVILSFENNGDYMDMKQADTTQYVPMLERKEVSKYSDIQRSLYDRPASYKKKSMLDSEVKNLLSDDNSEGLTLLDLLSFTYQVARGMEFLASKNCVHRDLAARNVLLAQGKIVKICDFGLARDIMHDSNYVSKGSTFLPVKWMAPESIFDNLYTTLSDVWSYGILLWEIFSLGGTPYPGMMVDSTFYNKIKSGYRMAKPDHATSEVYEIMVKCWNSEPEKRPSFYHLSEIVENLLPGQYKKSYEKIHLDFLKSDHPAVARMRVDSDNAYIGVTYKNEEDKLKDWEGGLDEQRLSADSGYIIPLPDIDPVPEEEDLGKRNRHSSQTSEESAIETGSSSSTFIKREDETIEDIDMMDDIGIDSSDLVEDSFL
Chain of UniProt O14920 (whole entry, looked up): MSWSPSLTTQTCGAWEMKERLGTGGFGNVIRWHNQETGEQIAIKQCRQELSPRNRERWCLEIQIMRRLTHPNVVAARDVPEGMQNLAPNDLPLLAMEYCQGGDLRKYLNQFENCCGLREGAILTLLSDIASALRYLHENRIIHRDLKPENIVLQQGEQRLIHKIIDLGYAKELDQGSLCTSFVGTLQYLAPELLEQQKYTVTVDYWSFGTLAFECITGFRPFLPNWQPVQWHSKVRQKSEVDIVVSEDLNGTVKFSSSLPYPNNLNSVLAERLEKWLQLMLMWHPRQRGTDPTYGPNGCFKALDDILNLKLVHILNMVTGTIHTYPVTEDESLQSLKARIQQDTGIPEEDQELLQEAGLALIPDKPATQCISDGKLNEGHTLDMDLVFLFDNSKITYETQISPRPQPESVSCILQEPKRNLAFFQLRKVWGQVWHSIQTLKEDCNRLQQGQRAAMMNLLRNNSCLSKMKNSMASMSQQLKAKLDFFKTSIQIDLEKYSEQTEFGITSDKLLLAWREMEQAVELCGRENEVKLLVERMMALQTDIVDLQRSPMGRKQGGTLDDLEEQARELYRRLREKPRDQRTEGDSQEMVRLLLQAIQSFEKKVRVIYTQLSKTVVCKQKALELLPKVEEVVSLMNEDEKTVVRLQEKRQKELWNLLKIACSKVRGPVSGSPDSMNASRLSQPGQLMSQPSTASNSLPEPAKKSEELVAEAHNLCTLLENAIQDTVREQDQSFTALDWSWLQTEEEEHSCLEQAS
Chain of UniProt Q8TDC3 (whole entry, looked up): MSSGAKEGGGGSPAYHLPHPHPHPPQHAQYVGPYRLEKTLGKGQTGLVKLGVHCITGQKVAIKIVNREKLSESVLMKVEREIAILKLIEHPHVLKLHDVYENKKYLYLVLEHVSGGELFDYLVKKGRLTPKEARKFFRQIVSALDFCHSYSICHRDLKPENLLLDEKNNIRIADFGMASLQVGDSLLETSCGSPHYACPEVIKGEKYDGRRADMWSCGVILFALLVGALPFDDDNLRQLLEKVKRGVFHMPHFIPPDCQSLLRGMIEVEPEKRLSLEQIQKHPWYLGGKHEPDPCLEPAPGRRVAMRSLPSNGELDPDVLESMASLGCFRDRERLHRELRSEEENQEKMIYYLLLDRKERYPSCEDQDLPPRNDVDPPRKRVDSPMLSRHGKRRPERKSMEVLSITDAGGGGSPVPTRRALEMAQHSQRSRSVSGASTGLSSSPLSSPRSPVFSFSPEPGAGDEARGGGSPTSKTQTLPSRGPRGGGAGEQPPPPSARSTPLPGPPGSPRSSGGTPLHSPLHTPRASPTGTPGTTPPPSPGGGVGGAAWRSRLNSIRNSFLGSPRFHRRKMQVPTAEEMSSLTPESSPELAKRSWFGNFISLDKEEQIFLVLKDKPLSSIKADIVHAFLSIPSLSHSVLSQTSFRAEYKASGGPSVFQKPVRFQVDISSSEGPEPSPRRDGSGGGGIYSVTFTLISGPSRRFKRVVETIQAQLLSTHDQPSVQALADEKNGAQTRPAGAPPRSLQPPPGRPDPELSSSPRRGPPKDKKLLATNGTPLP

Set 1 — method: competition with immobilised ligand; concentration: 1 µM; quantity: remaining binding
Structure (SMILES): Cc1nc(N2CC[C@@H](O)C2)ncc1-c1cc(C(F)(F)F)cc2[nH]ncc12
target = Dual specificity mitogen-activated protein kinase kinase 4 (MAP2K4, Homo sapiens, UniProt P45985); assay = binding; value = 97%
target = RAC-gamma serine/threonine-protein kinase (AKT3, Homo sapiens, UniProt Q9Y243); assay = binding; value = 77%
target = Platelet-derived growth factor receptor alpha (PDGFRA, Homo sapiens, UniProt P16234); assay = cell-free assay; value = 76%
target = Serine/threonine-protein kinase BRSK1 (BRSK1, Homo sapiens, UniProt Q8TDC3); assay = binding; value = 100%
target = Atypical kinase COQ8A, mitochondrial (COQ8A, Homo sapiens, UniProt Q8NI60); assay = cell-free assay; value = 100%
target = Wee1-like protein kinase (WEE1, Homo sapiens, UniProt P30291); assay = binding; value = 73%
target = Tyrosine-protein kinase ABL1, non-phosphorylated (ABL1, Homo sapiens, UniProt P00519, H396P); assay = binding; value = 77%
target = Calcium/calmodulin-dependent protein kinase type IV (CAMK4, Homo sapiens, UniProt Q16566); assay = binding; value = 100%
target = 5'-AMP-activated protein kinase catalytic subunit alpha-1 (PRKAA1, Homo sapiens, UniProt Q13131); assay = cell-free assay; value = 89%
target = Serine/threonine-protein kinase 32A (STK32A, Homo sapiens, UniProt Q8WU08); assay = binding; value = 85%
target = Cyclin-dependent kinase 4, with cyclin D1 (CDK4, Homo sapiens, UniProt P11802); assay = binding; value = 71%
target = Serine/threonine-protein kinase 16 (STK16, Homo sapiens, UniProt O75716); assay = binding; value = 92%
target = Serine/threonine-protein kinase D1 (PRKD1, Homo sapiens, UniProt Q15139); assay = binding; value = 75%
target = Cyclin-dependent kinase 3 (CDK3, Homo sapiens, UniProt Q00526); assay = binding; value = 83%
target = Tyrosine-protein kinase JAK1, JH1 (JAK1, Homo sapiens, UniProt P23458); assay = binding; value = 78%
target = Serine/threonine-protein kinase ULK3 (ULK3, Homo sapiens, UniProt Q6PHR2); assay = binding; value = 78%
target = G protein-coupled receptor kinase 4 (GRK4, Homo sapiens, UniProt P32298); assay = binding; value = 86%
target = Wee1-like protein kinase 2 (WEE2, Homo sapiens, UniProt P0C1S8); assay = binding; value = 100%
target = Inhibitor of nuclear factor kappa-B kinase subunit beta (IKBKB, Homo sapiens, UniProt O14920); assay = cell-free assay; value = 77%

Set 2 — cell line: mouse MPNST tumor cells; method: high-content nuclear imaging; measured: cell number; concentration: 10 µM; time: 12 h; notes: mean of 2 replicates; relative to: plate mean; reading: higher = more cells; quantity: nuclei count
SMILES = C=C1c2c(Cl)ccc(O)c2C(O)=C2C(=O)[C@]3(O)C(O)=C(C(N)=O)C(=O)[C@@H](N(C)C)[C@@H]3[C@@H](O)[C@H]12.O=C(O)c1cc(S(=O)(=O)O)ccc1O; value = 1.28 z-score
SMILES = COc1cccc(/C=N/N(C(=O)C(F)(F)F)c2ccc(C)cc2C)c1; value = -0.00547 z-score
SMILES = O=C(CCSCc1ccco1)NNC(=O)N1Cc2ccccc2Oc2ccc(Cl)cc21; value = 0.146 z-score
SMILES = CC(C)c1ccc(NC(=O)Cn2cnc3c2c(=O)n(C)c(=O)n3C)cc1; value = 0.432 z-score
SMILES = CCC1(c2ncc[nH]2)Cc2ccccc2O1 (centres unmarked); value = 1.07 z-score
SMILES = OC(CCN1CCCC1)(c1ccccc1)C1CCCCC1 (centres unmarked); value = 1.69 z-score
SMILES = CN[C@@H]1[C@H](O[C@H]2[C@H](O[C@H]3[C@H](O)[C@@H](O)[C@H](NC(=N)N)[C@@H](O)[C@@H]3NC(=N)N)O[C@@H](C)[C@]2(O)CO)O[C@@H](CO)[C@H](O)[C@H]1O; value = 0.445 z-score
SMILES = N=C(N)c1ccc(-c2ccc(-c3ccc(C(=N)N)cc3)o2)cc1; value = -0.633 z-score
SMILES = COc1cc2nccc(Oc3ccc(NC(=O)Nc4ccc(F)cc4F)c(F)c3)c2cc1OC; value = -4.37 z-score
SMILES = COc1ncc2cc(C(=O)Nc3cc(C(=O)NCc4cccc(Cl)c4)ccc3Cl)c(=O)[nH]c2n1; value = 0.707 z-score
SMILES = C[C@]12CC[C@@H]3c4ccc(O)cc4CC[C@H]3[C@@H]1CCC2=O; value = 1.27 z-score
SMILES = CC(=C(CCO)SSCC1CCCO1)N(C=O)Cc1cnc(C)nc1N (stereo in doubt); value = -0.324 z-score

Set 3 — effect on: enzyme activity; mode: inhibitor; concentration: 0.5 µM; relative to: control; quantity: remaining activity
Target: Serine/threonine-protein kinase 4 (STK4, Homo sapiens, UniProt Q13043)
Chain of UniProt Q13043 (whole entry, looked up): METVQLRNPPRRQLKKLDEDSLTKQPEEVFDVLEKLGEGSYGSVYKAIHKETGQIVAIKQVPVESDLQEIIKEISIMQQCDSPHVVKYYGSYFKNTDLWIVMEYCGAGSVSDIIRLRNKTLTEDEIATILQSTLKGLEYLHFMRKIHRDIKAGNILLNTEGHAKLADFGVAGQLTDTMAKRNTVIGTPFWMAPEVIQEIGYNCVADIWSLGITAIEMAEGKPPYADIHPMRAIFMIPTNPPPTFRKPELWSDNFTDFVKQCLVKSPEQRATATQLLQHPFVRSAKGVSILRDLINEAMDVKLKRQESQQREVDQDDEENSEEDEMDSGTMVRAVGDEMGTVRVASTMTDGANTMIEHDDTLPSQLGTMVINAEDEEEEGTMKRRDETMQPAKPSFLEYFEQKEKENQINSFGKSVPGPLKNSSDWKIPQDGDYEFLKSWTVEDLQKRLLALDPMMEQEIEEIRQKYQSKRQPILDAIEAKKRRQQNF
SMILES = Cc1nc2cc3nc(-c4cccs4)cnc3cc2n1C; value = 97.4%
SMILES = O=C(Nc1cccc(Nc2nccc(Nc3cccc(C(F)(F)F)c3)n2)c1)C1CC1; value = 83.1%
SMILES = N#C/C(=C\c1ccc(O)c(O)c1)C(=O)NCc1ccccc1; value = 95.9%
SMILES = Cc1cc2ncc(-c3ccccc3)nc2cc1C; value = 98.6%
SMILES = COc1cc2ncnc(Nc3cccc(Cl)c3)c2cc1OC; value = 92%
SMILES = COc1cc2c(cc1OC)-c1[nH]nc(Nc3cccc(F)c3)c1C2; value = 91.5%
SMILES = O=C1c2ccccc2-c2n[nH]c3cccc1c23; value = 62.3%
SMILES = O=C1C(Cl)=C(N2C(=O)CCC2=O)C(=O)c2ccccc21; value = 89.1%
SMILES = c1ccc(-c2[nH]ncc2-c2ccnc3ccccc23)nc1; value = 101%
SMILES = N#Cc1c(NC(=O)c2cccc3ccccc23)sc2c1CCCC2; value = 93.1%
SMILES = Cn1nc2c3c(cccc31)C(=O)c1ccccc1-2; value = 78.9%
SMILES = CCN(CC)C(=O)c1ccc(Nc2nc(OCC3CCCCC3)c3[nH]cnc3n2)cc1; value = 46.3%
SMILES = O=c1cc(-c2cccc3c2Sc2ccccc2S3)oc(N2CCOCC2)c1; value = 95%
SMILES = Nc1cccc(-c2cc3c(Oc4cccc(O)c4)ncnc3[nH]2)c1; value = 94.4%

Set 4 — species: mouse; matrix: microsomes or S9; concentration: 2 µM; time: 0.5 h; quantity: remaining compound
SMILES = Cc1cc(NCc2cc(-c3cnn(C)c3C)no2)c(Cl)cc1F; value = 1.67%
SMILES = Cc1cc(S(=O)(=O)N[C@H]2CC[C@H]2NC2CCN(C(C)C)CC2)c(C)s1; value = 2.3%
SMILES = Cc1sc(NC(=O)NCCC(=O)OC(C)C)c(C#N)c1C; value = 0.454%
SMILES = CC1(C)C=C(Br)c2ccnc(-c3ccc(S(C)(=O)=O)cc3F)c2O1; value = 10%
SMILES = COc1cc(=O)[nH]cc1C(=O)N1CCOC(c2nc(C)cs2)C1 (centres unmarked); value = 89.4%
SMILES = Oc1ccccc1O/C(=C/n1ccnc1)c1ccccc1; value = 12.4%
SMILES = CCN(CC)/C(=N\S(=O)(=O)c1ccccc1C)c1ccccc1; value = 0.109%
SMILES = Nc1c(-c2nc(-c3cccc(Br)c3)cs2)nnn1-c1ccc(F)cc1F; value = 9.3%
SMILES = Nc1ccc(CCNC[C@H](O)c2ccccc2)cc1; value = 94%
SMILES = CCCc1nc(-c2ccc3ccccc3c2)cc2c1sc1ccccc12; value = 72.2%
SMILES = COc1cc(Nc2ncnc3cc(OC)c(OCC4CN(C(=O)OC(C)(C)C)CCO4)cc23)ccc1Cl (centres unmarked); value = 8.59%
SMILES = Cc1nn(C)c(-c2nc(-c3ccc(Br)o3)no2)c1Cl; value = 1.78%
SMILES = Cc1cc(-c2ccc(S(=O)(=O)N3CCOc4ccccc43)s2)n[nH]1; value = 0.777%
SMILES = Cc1nn(C)cc1-c1cncn1C(C)Cc1c(C)nn(C)c1C (centres unmarked); value = 45%

Repeated from above (set 1):
target = Wee1-like protein kinase (WEE1, Homo sapiens, UniProt P30291); assay = binding; value = 73%
target = Tyrosine-protein kinase ABL1, non-phosphorylated (ABL1, Homo sapiens, UniProt P00519, H396P); assay = binding; value = 77%
target = Calcium/calmodulin-dependent protein kinase type IV (CAMK4, Homo sapiens, UniProt Q16566); assay = binding; value = 100%
target = 5'-AMP-activated protein kinase catalytic subunit alpha-1 (PRKAA1, Homo sapiens, UniProt Q13131); assay = cell-free assay; value = 89%
target = Serine/threonine-protein kinase 32A (STK32A, Homo sapiens, UniProt Q8WU08); assay = binding; value = 85%
target = Cyclin-dependent kinase 4, with cyclin D1 (CDK4, Homo sapiens, UniProt P11802); assay = binding; value = 71%
target = Serine/threonine-protein kinase 16 (STK16, Homo sapiens, UniProt O75716); assay = binding; value = 92%
target = Serine/threonine-protein kinase D1 (PRKD1, Homo sapiens, UniProt Q15139); assay = binding; value = 75%
target = Cyclin-dependent kinase 3 (CDK3, Homo sapiens, UniProt Q00526); assay = binding; value = 83%
